Experimental data from different studies.
Parts stem from different laboratories: compare values within a part only. Substitutions count along the parent as printed.

Sample 1
Target: Sox-I, HMG box (Salpingoeca helianthica)
Method: Spec-seq
Molecule type: double-stranded DNA, one strand shown
Medium: in vitro
Concentration: not given
Setting: whole probe, mean of replicates
Relative to: not given
Reading: lower = stronger binding
Shared flanks, not repeated: GAGTCGTCTCGTCAGCAC … CCGTAGAGCACTCAGGTC
Target sequence (chain): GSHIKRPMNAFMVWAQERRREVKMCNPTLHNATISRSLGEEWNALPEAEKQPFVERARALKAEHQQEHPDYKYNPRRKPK
Sequence | relative binding energy
CATTCGA | 1.23 ln ratio
ACGGGTT | 0.326 ln ratio
GAGTGTT | 0.523 ln ratio
CGAAGTT | 0.722 ln ratio
AGAAGTT | 0.135 ln ratio
CATCCCC | 0.93 ln ratio
CATAAAT | 0.218 ln ratio
TCGTGTT | 0.347 ln ratio
CCGGGTT | 1.09 ln ratio
GATCGTT | 0.992 ln ratio
CAACGTT | 0.788 ln ratio
CATGACG | 0.488 ln ratio
CATGCAG | 1.01 ln ratio
TCAAGTT | 0.528 ln ratio
TATTGTT | -2.79 ln ratio
GCTGGTT | 0.988 ln ratio
GAAGGTT | 1.21 ln ratio

Sample 2
Target: ABI1, truncated, D143A, DHFR fusion (Arabidopsis thaliana)
Method: DHFR PCA, deep sequencing
Medium: yeast
Setting: methotrexate growth selection, single substitutions
With: (+)-ABA 0 µM
Relative to: wild-type fitted maximum
Reading: higher = stronger binding
Parent: PYL1, truncated, DHFR fusion (Arabidopsis thaliana); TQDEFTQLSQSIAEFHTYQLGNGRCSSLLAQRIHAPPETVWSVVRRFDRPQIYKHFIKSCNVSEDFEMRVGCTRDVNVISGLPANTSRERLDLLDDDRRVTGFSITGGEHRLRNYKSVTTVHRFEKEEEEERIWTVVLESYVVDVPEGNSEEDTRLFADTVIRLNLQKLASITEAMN; partner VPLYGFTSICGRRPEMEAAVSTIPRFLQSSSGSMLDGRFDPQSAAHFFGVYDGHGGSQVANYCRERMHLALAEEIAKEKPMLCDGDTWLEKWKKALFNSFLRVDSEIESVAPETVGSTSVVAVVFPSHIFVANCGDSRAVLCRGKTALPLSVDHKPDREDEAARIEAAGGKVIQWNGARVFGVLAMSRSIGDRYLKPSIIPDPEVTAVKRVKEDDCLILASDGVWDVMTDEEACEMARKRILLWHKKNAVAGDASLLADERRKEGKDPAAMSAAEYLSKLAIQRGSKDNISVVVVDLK
Substitution | relative binding score [%]
V40Y | 3.57
D144M | -3.69
I162W | 4.28
F47C | 1.73
G23F | -0.103
L166S | -0.545
R74S | 1.66
R90W | -3.22
T39K | 9.9
R88S | 6.27
P83L | 5.75
S42N | 23.7
L82W | 44.9
D144Y | 3.42
S42L | -0.269
D97W | -4.08
E109L | -5.4

Sample 3
Target: RING finger protein unkempt homolog, zinc fingers 1-6, GST-SBP tag (UNK, Homo sapiens, UniProt Q9C0B0, residues 30-357)
Method: RNA Bind-n-Seq
Molecule type: RNA
Medium: in vitro
Concentration: not given
Setting: RNA with constant flanks, human and mouse sites, ends assumed
Relative to: input RNA pool
Reading: higher = stronger binding
Shared flanks, not repeated: GGGAGUUCUACAGUCCGACGAUC … CAACAGAGGAUUGAGCAUCA
Target sequence (chain): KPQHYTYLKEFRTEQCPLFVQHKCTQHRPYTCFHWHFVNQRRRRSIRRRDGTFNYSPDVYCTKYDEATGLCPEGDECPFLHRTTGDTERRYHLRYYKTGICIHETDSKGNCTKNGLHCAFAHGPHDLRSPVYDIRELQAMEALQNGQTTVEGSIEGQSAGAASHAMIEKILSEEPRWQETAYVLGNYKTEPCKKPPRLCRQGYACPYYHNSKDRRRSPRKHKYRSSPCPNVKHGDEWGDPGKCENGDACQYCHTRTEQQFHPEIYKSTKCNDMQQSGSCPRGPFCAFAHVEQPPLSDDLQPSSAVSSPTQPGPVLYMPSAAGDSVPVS
Sequence | bound/input enrichment [ratio]
GACGGAAUCAUGUCUCAACUGCUCGUUGUCUGCAGACCUCCAGUAUUUCCUCUGCCUCAUUUUUAAGAAAGAAGCGAUGGGGAGACAUUGCUCUUUGGCCUGGGUAUCUGGGCUCCUGCC | 0.0893
CAGAUGCUUGUGACCACACCAGAAAAAUGGGAUGUAGUGACAAGAAAGAGUGUUGGGGAUGUAGCUCUUUCCCAGAUUGUAAGGCUCCUUAUUCUUGAUGAAGUUCAUUUGCUGCAUGAA | 0.117
CCUGCCCUCUCCGAGGCCUGCUCAGCUGCCUUCCAGACGGCCCUACCAGCCAGCCCCACCUGGCCACCACGCCCACCGACAGCUCGUGUUCCAGUGGCCCAACUGGUGACGGGGUCCAGG | 0.117
UUGGUCUUCAAGGACUUUUACCUCCUAAAAUAGAGACACAGGAUAUUCAAGCCUUACGAUUCCAUAGAAACUUGAAAAAAAUGACUAGCCCUUUGGAAAAAUACAUUUAUAUAAUGGGCA | 7.82
UCUUACACCAUCCAGUCUGAACUGGGAGACUACGACCCAGAACUCCAUGGCGUGGAUUAUGUUAGUGAUUUUAAACUGGCCCCGAAUCAGACCAAGGAACUUGAAGAGAAGGUCAUGGAA | 0.505
CUUGCUUUCUGUAGGAGAAUUGAACAGCACUAUUUUGAAGAUCGUGGUAAAGGCAGGCUGUCAUAGAGUUAUGUGUUAGUCUCAGGAGUCUUAACUUUUGAAAUAUGUUUUACUUGAAUG | 2.79
ACAUCAUCAAAAUAUUACUAAAUGCAGGAGCUGAGAUUAACUCUAGAACUGGUAGCAAAUUGGGCAUCUCUCCUCUGAUGUUAGCAGCUAUGAAUGGGCAUACAGCUGCUGUUAAGCUCC | 3.45
GGGAAAAGCCUGCAGGGGGAUCCUGCAGCUGCGCUGCUUGAGGUGUUGGAUCCUGAACAAAACCAUAACUUCACAGAUCACUAUCUAAAUGUGGCCUUUGACCUUUCCCAAGUUCUUUUC | 0.0678
AGAGCCCAGGACGUUGAUGCUACAAACCCAAAUUAUGAAAUUAUGUGUAUGAUCAGAGACUUUAGAGGAAGUUUGGAUUAUAGACCAUUAACAACAGCAGAUCCUAUUGAUGAACAUAGG | 0.931
CGGGGCGGGGGCCACGGCCCCUCGGGCUAGCGAGGAUGAGCUUCCUCUUCAGCAGCCGCUCUUCGAAAACAUUCAAACCAAAGAAGAAUAUCCCUGAAGGGUCCCAUCAGUAUGAGCUCU | 0.14
GGGGAGGUGUACGCUGAGUGUCUUAGUGACAGCAGCAUCUUUGUUCAGAGUAGGAACUGCAACUUUCACCAUGGCUUCCAUCCCACCACCGUCUGUAAGAUCCCCAGCAGCUGCAGCCUC | 0.205

Sample 4
Target: CCND1, cyclin fold, Cln2 fusion (human)
Method: yeast growth competition, sequencing
Medium: yeast
Setting: weak parent motif
Relative to: not given
Reading: higher = stronger binding
Parent: HASPIN docking peptide (human); ASLRSVLFGLMNS
Substitution | normalised enrichment score
L7A | 0.111
F8A | 0.279
L10A | 0.698
V6A | 0.551
N12A | 1.06
S13A | 0.271

Sample 5
Target: BATF2, bZIP domain (human)
Method: DHFR protein complementation
Medium: yeast
Setting: single substitutions, most at no-binding floor
Relative to: wild-type JUN-FOS pair
Reading: higher = stronger binding
Parent: JUN, bZIP domain (human); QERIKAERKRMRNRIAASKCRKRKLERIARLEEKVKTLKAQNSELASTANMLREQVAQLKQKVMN; partner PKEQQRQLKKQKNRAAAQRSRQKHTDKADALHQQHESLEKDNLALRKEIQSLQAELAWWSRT
Substitution | binding fitness [natural log]
E32G | -0.852
I28N | -0.73
T48C | -0.428
Q41A | -0.421
A46D | -0.947
L31H | -0.955
L38P | -1.28
L52G | -1.16
Q55H | -0.603
Q55M | -0.436
K36S | -0.286
K39Y | -0.75
K36C | -0.272

Sample 6
Target: Fragile X messenger ribonucleoprotein 1, C-terminal low-complexity region (Fmr1, Mus musculus, UniProt P35922)
Method: RNA Bind-n-Seq
Molecule type: RNA
Medium: in vitro
Concentration: 200 nM
Setting: whole 134-nt RNA, ends assumed
With: 150 mM KCl
Relative to: input library
Reading: higher = stronger binding
Shared flanks, not repeated: GGGAGUUCUACAGUCCGACGAUC … UGGAAUUCUCGGGUGUCAAGG
Sequence | log2 enrichment
CUGUGCUACACAUCGUAUGUACCGAAUCGGGGUUUUUUGGGGUUUUUUGGGGUUUUUUGGGGAAAGUAUUAUGUUACGCCGUUCGGAUCU | 0.229
UGGCCCUGGUGGCAUGCGGGGAGGAAGAGGUGGCCUCAUGGAUCGUGGUGGUCCCGGUGGAAUGUUCAGAGGUGGGCGUGGUGGAGACAG | 0.557
CACAGACAACACGCACCCACACAGACACAGAGGGAAGGGGAUGGGAUGGGGACAGGGUGCACAGCAGGGCGGGGUAGGACCCCAGCCCCU | 1.13
CCUCAAGUCCUGUGCUACACAUCGUAUGUACCGAAUCGGUGGUUUGGAAAGGAAAGUAUUAUGUUACGCCGUUCGGAUCUGCACUUCCAG | 0.185
UCCUGUGCUACACAUCGUAUGUACCGAAUCAAACCCCCAAAUUUUUUUAAACCCCCAAAAAAGUAUUAUGUUACGCCGUUCGGAUCUGCA | -0.24
GCAGGAAGUAAAAACAAAUAGAAAUGCUUCGGAUAGUGGCAGGGGUGGGGGUUGCUAAGGAAAGGGUGGGAUGGGAGUGGGUAAAGAGUU | 0.252
ACCAUGCAGGUGGGCAUCUUUGGGAAGUGGGGCAAGGGGGGGAUAGGGAGGGGGGUAACACUUUGGGAACAAGUGGUCCCAGGUCGUUUC | 0.865
UCAAGUCCUGUGCUACACAUCGUAUGUACCGAAUCGGGAAAGGGUUUGGGUGGGAAAGUAUUAUGUUACGCCGUUCGGAUCUGCACUUCC | 1.28
CACAGACAACAAACACCCACACAGACACAGAGGGAAGGGGUUGGGAUGGGGACAGGGUGCACAGCAGGGCGGGGUAGGACCCCAGCCCCU | 1.59
GUCCUGUGCUACACAUCGUAUGUACCGAAUCGGGAGGGAAAAAAAGGGAAAAAAAGGGAAAGUAUUAUGUUACGCCGUUCGGAUCUGCAC | 0.0248
UGGCCCUGGUGGCAUGCGGGGAGGCAGAGGUGGCCUCAUGGAUCGUGGUGGUCCCGGUGGAAUGUUCAGAGGUGGCCGUGGUGGAGACAG | 0.0548
GCAGGAAGUAAAAACAAAUGGAAAUGCUUCGGAUAGUGGCAGGGGUGGGGGUUGCUAAGGAAAGGGUGGGAUGGGAGUGGGUAAAGCGUU | 0.447
CACAGACAACACGCACCCACACAGACACAGAGGGAAGGGGUUGGGAUGGGGACAGGGUGCACAGCACGGCGGGGUAGGACCCCAGCCCCU | 1.25
CAAGUCCUGUGCUACACAUCGUAUGUACCGAAUCGGUUUUUUUGGAAAGGAAAGGAAAGUAUUAUGUUACGCCGUUCGGAUCUGCACUUC | -0.78

Mixed results
Substance | target | test | test system | setting | scale | measurement | result
PhoQ, residues 284 288 289 292 302 303 ALSMDL | PhoP, residues 12 14 15 18 19 DLLYY (Escherichia coli, UniProt P23836) | Sort-seq, measured: YFP reporter | E. coli | PhoQ-PhoP variant library, with: 10 µM Mg2+ | relative to: high Mg2+ state, higher = stronger signaling | fold induction | 1.4

For quick reference, copied from above (sample 5):
Substitution | binding fitness [natural log]
E32G | -0.852
I28N | -0.73
T48C | -0.428
Q41A | -0.421
A46D | -0.947
